Published values gathered from unrelated publications.
Lines come from different studies, so protocols differ. “And” joins repeats or separate records; there may be more than shown. ± gives the spread as reported.
PRKACA: cAMP-dependent protein kinase catalytic subunit alpha (PRKACA, Homo sapiens, UniProt P17612)
XDH: Xanthine dehydrogenase/oxidase (XDH, Homo sapiens, UniProt P47989)
Sequence of UniProt P47989 (whole entry, looked up): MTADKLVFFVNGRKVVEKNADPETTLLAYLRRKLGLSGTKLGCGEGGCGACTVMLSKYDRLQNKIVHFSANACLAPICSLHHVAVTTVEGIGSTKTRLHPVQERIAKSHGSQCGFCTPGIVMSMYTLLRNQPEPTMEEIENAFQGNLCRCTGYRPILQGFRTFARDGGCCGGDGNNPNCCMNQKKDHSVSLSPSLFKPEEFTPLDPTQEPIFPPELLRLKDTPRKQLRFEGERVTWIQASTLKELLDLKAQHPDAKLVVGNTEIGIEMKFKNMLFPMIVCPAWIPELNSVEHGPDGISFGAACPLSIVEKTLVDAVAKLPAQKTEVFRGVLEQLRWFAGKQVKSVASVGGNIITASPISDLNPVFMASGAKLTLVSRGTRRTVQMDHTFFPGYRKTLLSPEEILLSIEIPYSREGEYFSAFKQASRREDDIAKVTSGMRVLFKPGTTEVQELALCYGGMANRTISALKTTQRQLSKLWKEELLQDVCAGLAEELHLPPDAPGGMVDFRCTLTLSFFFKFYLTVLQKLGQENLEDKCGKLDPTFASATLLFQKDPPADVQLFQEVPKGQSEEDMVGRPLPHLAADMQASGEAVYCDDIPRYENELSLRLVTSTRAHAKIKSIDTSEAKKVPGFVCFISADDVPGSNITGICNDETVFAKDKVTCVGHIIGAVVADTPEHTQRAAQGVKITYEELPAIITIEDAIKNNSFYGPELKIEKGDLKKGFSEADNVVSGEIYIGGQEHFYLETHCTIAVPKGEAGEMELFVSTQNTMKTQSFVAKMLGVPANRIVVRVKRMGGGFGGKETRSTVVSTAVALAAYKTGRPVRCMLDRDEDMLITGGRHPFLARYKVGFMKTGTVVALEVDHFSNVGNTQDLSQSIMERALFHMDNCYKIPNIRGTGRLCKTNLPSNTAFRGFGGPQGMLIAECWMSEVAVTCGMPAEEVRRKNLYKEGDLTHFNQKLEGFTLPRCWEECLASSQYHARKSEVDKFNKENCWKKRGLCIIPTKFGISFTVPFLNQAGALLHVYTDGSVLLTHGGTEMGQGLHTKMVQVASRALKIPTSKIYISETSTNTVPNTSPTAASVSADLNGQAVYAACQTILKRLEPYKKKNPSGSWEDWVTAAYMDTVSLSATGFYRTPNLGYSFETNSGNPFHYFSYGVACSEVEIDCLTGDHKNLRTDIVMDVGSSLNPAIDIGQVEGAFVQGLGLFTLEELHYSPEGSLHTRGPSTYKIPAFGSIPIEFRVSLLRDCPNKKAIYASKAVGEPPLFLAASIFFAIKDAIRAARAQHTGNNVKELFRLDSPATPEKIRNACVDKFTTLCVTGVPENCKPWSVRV
IL1RL1 with IL-33: Interleukin-1 receptor-like 1, with IL-33 (IL1RL1, Homo sapiens, UniProt Q01638)
Sequence of UniProt Q01638 (whole entry, looked up): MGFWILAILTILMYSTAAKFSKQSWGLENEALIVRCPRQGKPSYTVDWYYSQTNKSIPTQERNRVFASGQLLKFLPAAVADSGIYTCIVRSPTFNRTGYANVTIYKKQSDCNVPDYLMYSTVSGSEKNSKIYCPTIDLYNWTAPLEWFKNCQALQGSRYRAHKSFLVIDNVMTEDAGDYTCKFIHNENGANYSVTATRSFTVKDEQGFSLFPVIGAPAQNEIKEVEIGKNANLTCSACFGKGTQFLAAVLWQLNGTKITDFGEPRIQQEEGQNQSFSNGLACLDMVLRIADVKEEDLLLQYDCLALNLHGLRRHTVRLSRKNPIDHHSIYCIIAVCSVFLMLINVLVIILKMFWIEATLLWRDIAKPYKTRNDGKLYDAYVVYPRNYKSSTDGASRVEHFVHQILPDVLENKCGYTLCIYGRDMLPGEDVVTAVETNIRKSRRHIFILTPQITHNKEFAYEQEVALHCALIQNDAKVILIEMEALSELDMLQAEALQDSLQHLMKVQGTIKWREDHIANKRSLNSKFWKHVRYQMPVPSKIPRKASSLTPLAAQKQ
OVA5: Lysine--tRNA ligase, chloroplastic/mitochondrial (OVA5, Arabidopsis thaliana, UniProt Q9LJE2)
Sequence of UniProt Q9LJE2 (whole entry, looked up): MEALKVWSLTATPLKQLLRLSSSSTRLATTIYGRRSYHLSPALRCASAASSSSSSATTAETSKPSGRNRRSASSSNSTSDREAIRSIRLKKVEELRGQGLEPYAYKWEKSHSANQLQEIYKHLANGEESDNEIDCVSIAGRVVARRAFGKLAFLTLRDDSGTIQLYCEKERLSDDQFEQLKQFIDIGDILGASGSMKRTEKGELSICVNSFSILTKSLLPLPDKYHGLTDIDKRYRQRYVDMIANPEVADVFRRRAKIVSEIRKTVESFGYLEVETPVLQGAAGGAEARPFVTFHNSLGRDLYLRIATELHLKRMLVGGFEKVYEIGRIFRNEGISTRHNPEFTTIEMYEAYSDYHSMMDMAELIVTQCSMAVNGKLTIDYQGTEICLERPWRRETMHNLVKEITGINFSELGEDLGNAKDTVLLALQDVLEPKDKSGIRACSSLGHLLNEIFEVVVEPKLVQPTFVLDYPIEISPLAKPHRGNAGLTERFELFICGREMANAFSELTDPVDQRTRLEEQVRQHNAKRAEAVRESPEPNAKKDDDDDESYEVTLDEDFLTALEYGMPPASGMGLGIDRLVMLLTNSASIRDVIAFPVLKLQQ
NTRK1: High affinity nerve growth factor receptor (NTRK1, Homo sapiens, UniProt P04629)
Sequence of UniProt P04629 (whole entry, looked up): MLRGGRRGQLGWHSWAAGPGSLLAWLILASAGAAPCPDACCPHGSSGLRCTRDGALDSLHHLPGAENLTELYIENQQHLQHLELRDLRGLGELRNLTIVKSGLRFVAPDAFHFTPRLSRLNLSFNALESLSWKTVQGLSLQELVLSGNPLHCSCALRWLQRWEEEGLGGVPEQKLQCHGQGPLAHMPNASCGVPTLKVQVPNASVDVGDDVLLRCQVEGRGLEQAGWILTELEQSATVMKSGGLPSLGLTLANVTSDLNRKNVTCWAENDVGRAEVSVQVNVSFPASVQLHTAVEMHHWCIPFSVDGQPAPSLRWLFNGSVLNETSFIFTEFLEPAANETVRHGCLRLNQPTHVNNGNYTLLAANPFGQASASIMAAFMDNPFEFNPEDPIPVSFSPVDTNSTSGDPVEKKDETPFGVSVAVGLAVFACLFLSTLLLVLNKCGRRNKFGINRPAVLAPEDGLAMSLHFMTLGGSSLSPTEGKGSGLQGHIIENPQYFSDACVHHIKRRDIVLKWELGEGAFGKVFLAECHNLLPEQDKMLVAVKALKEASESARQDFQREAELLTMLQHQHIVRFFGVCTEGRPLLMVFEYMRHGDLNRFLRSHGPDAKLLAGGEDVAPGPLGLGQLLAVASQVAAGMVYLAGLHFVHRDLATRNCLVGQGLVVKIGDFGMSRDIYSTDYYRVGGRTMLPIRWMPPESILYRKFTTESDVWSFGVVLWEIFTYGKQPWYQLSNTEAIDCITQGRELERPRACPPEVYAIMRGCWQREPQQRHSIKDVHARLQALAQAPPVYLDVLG
Sequence of UniProt Q8N884 (whole entry, looked up): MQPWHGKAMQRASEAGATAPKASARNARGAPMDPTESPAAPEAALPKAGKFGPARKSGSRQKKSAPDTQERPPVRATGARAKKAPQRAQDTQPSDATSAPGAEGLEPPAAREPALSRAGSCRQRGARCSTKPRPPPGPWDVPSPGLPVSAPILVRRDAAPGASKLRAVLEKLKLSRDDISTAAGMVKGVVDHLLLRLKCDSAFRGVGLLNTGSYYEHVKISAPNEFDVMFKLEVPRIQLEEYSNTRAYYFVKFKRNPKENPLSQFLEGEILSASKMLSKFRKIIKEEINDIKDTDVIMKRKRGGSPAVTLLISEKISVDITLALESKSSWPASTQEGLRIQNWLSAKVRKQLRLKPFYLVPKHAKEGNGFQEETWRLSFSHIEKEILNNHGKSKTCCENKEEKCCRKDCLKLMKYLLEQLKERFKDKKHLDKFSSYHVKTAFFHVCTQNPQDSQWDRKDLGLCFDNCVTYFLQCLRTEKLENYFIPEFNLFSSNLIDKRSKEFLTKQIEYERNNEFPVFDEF
Sequence of UniProt O15244 (whole entry, looked up): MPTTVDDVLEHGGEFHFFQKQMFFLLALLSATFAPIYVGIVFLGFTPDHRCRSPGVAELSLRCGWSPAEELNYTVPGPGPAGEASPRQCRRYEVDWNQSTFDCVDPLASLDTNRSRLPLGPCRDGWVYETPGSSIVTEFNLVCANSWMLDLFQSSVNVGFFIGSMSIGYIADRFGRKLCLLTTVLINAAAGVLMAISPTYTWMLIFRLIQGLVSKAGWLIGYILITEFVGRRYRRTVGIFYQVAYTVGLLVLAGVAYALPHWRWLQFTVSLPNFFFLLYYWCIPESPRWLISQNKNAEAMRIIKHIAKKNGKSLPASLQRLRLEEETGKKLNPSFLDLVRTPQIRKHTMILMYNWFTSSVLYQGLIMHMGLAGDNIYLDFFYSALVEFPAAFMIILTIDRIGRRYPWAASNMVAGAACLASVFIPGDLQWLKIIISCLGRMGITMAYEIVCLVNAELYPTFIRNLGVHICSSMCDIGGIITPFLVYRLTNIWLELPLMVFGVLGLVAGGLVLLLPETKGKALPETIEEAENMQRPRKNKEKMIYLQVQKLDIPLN
Sequence of UniProt P48547 (whole entry, looked up): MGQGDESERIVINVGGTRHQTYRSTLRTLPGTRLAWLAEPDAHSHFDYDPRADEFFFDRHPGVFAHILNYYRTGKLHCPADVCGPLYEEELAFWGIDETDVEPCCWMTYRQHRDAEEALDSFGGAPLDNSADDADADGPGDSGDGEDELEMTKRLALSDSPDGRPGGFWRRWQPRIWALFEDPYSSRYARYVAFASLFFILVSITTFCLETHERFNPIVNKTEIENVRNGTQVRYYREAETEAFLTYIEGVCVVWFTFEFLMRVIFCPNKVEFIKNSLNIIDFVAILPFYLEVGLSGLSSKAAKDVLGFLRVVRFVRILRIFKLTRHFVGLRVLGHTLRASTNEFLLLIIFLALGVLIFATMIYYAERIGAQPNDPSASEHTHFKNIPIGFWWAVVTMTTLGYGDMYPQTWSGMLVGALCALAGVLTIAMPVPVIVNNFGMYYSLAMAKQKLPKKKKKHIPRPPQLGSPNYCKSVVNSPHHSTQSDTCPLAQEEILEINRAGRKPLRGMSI

COc1ccc(-c2cc(Cl)c(C(=O)N[C@@H](CNC(=O)CNC(=O)c3cccc(NC(=N)N)c3)C(=O)O)c(Cl)c2)cn1  IC50 (Integrin alpha-5/beta-1 (Homo sapiens, UniProt P05556+P08648); cell adhesion, inhibitor; SW480; added: fibronectin 0.3 µg/mL): 0.00501 µM
C1=C(c2cc[nH]n2)SCCN1c1ncnc2[nH]cnc12  IC50 (PRKACA): > 10 µM
N=C1N[C@H](CO)[C@H](O)[C@H](O)[C@H]1O  IC50 (sweet almond β-glucosidase; enzyme activity, inhibitor; pH 5.00, added: 2-chloro-4-nitrophenyl β-D-glucopyranoside): > 1000 µM
C[C@H]1CCN(C(=O)C2=CN(c3ncnc4[nH]ccc34)CCS2)C[C@@H]1N  IC50 (PRKACA): 0.0074 ± 0.0004 µM
CCN(CC)C(=S)S  IC50 (XDH; enzyme activity, inhibitor): > 75 µM
CO[C@H]1C(NCc2ccc(C)cc2)=N[C@H](CO)[C@H](O)[C@@H]1O  IC50 (sweet almond β-glucosidase; enzyme activity, inhibitor; pH 5.00, added: 2-chloro-4-nitrophenyl β-D-glucopyranoside): > 5000 µM
CN(C)c1cccc(C2CCCN2Cc2ccc(-c3ccccc3[N+](=O)[O-])o2)c1 (centres unmarked)  IC50 (IL1RL1 with IL-33; binding, AlphaLISA): 5 to 7 µM and < 10 µM
Cc1nn2c(-c3c(C)nn(C)c3-c3ccc(C(F)(F)F)cc3)nc(CO)c2c(=O)[nH]1  IC50 (PDE5A (Homo sapiens, UniProt O76074); enzyme activity, inhibitor, scintillation proximity): 1.77 µM
Nc1ccnc(-c2ccccc2)c1  IC50 (KCNC1 (Homo sapiens, UniProt P48547); potassium current, inhibitor, whole-cell patch clamp; HEK293T; +40 mV pulse): ~1100 µM
Cc1c(Cc2ccccc2)c(=O)oc2c(C)c(OCC(=O)NN=Cc3ccccc3)ccc12  IC50 (Phosphatidylinositol 4,5-bisphosphate 3-kinase catalytic subunit beta isoform, with p85 alpha (PIK3CB, Homo sapiens, UniProt P42338); enzyme activity, inhibitor, ADP-Glo): 0.533 ± 0.0525 µM
CSCC[C@H](N)C(=O)N[C@@H](CCCNC(=N)N)C(=O)N[C@H](C(=O)NCC(=O)N[C@@H](CC(N)=O)C(=O)N[C@@H](C)C(=O)N[C@@H](CC(N)=O)C(=O)O)[C@@H](C)O  IC50 (MccB Escherichia coli wild type; competition fluorescence polarization; 30 min, pH 7.5, 25 °C, added: 20 nM FITC-labelled probe): > 5000 µM
COc1c([C@H]2[C@H](C(=O)Nc3ccnc(C(N)=O)c3)O[C@@](C)(C(F)(F)F)[C@H]2C)ccc(F)c1F  IC50 (Equilibrative nucleoside transporter 1 (Cavia porcellus, UniProt H0V4R7); binding): 8.8 µM
Cc1noc(C)c1C1=CN(c2ncnc3[nH]cc(C)c23)CCS1  IC50 (PRKACA): > 10 µM
CC1CCC(CNC(=O)c2snc(N)c2Cl)CC1 (centres unmarked)  IC50 (OVA5; enzyme activity, inhibitor): 6.31 µM
Cc1noc(C)c1C1=CN(c2ncnc3[nH]ccc23)CCS1  IC50 (PRKACA): > 10 µM
C[C@]12CC[C@@H]3c4ccc(O)cc4C[C@@H](CCCCCCCCC[S+]([O-])CCCC(F)(F)C(F)(F)F)[C@H]3[C@@H]1CC[C@@H]2O (some centres unmarked)  IC50 (NR3C1 (Homo sapiens, UniProt P04150); GR receptor activity, antagonist, cell-based): 0.553 µM
O=C(N[C@H]1CCCNC1)C1=CN(c2ncnc3[nH]ccc23)CCS1  IC50 (PRKACA): < 0.1 µM
Cc1cc([N+](=O)[O-])ccc1-c1ccc(CN2CCCC2c2ccc(N(C)C)cc2)o1 (centres unmarked)  IC50 (IL1RL1 with IL-33; binding, AlphaLISA): < 10 µM
C[C@]1(Cn2ccnn2)[C@H](C(=O)O)N2C(=O)C[C@H]2S1(=O)=O  IC50 (beta-lactamase RAD-1 (Riemerella anatipestifer); enzyme activity, inhibitor, spectrophotometric reporter substrate hydrolysis): 9 µM
O=C(O)c1cccnc1Nc1cccc(C(F)(F)F)c1  IC50 (SLC4A1 (Homo sapiens, UniProt P02730); anion transport, inhibitor, Dixon plot; human erythrocytes): 0.603 µM
C#Cc1c(N)nsc1C(=O)NCc1ccc(F)cc1F  IC50 (OVA5; inhibitor): 39.8 µM
CO[C@H]1O[C@H](COS(=O)(=O)O)[C@@H](O[C@@H]2O[C@@H](C(=O)O)[C@@H](O[C@H]3O[C@H](COS(=O)(=O)O)[C@@H](O[C@@H]4O[C@H](C(=O)O)[C@@H](O[C@H]5O[C@H](COS(=O)(=O)O)[C@@H](O)[C@H](O)[C@H]5NS(=O)(=O)O)[C@H](O)[C@H]4O)[C@H](OS(=O)(=O)O)[C@H]3NS(=O)(=O)O)[C@H](O)[C@H]2OS(=O)(=O)O)[C@H](O)[C@H]1NS(=O)(=O)O  IC50 (Beta-2-glycoprotein 1, with anti-β2GPI antibody (APOH, Homo sapiens, UniProt P02749); binding to cardiolipin, ELISA; added: β2GPI 4 nM): 670 µM
CC1(C)COc2ccc(F)cc2CN2c3nc4c(cnn4cc3OC[C@H]2C(F)F)C(=O)N1  IC50 (NTRK1; enzyme activity, inhibitor; added: 1 mM ATP): 0.0006 µM
Cc1nn(-c2nc3ccccc3[nH]2)c(O)c1C(c1ccccc1C(=O)O)c1c(C)nn(-c2nc3ccccc3[nH]2)c1O  IC50 (CGAS (Homo sapiens, UniProt Q8N884); enzyme activity, inhibitor, pyrophosphatase-coupled; human cGAS): 4.29 µM and 8.13 µM
CCc1ccc(NC(=O)Nc2c[nH]c3ccccc23)cc1  IC50 (Triggering receptor expressed on myeloid cells 1, dimer (TREM1, Homo sapiens, UniProt Q9NP99); split luciferase reporter; human cells; 6 h, treatment 48 h after induction, added: doxycycline induction): 9.5 ± 3 µM
Nc1nc2nc[nH]c2c(=S)[nH]1  IC50 (CUGBP Elav-like family member 1 (CELF1, Homo sapiens, UniProt Q92879, del215-384); CELF1-RNA binding, inhibitor, fluorescence polarization; CELF1 20 nM, preincubation 30 min, added: RNA 10 nM): 21.5 µM
O=P(O)(O)C(CNc1ccccc1)P(=O)(O)O  IC50 (polyphosphate kinase 2 (Cytophaga hutchinsonii, UniProt A0A6N4SMB5); enzyme activity, inhibitor, HPLC; 30 min, 37 °C, added: 0.04 mM ADP and 0.3 mM polyP): 975 µM
CC1(C)CCC(CNC(=O)c2snc(N)c2Cl)CC1  IC50 (OVA5; enzyme activity, inhibitor): 79.4 µM
O=C(Nc1cccc2c(=O)cc(-c3nnn[nH]3)oc12)c1ccc(OCCCCc2ccccc2)cc1  IC50 (LRRC8A/LRRC8C (Homo sapiens, UniProt Q8IWT6+Q8TDW0, M48D/T48D); whole-cell patch clamp; HCT116 LRRC8-/- expressing heteromers; +100 mV): no effect
COc1cc(/C=C/C(=O)CC(=O)/C=C/c2ccc(O)c(OC)c2)ccc1O  IC50 (XDH; enzyme activity, inhibitor): > 75 µM
Nc1nsc(C(=O)NCC2CCCCC2)c1I  IC50 (OVA5; enzyme activity, inhibitor): 100 µM
C1=C(c2cccnc2)SCCN1c1ncnc2[nH]ccc12  IC50 (PRKACA): > 10 µM
COCC#Cc1c(N)nsc1C(=O)NCC1CCCCC1  IC50 (OVA5; enzyme activity, inhibitor): 79.4 µM
Cc1ncsc1-c1ccc(CNC(=O)[C@@H]2C[C@@H](O)CN2C(=O)[C@@H](NC(=O)C2(F)CC2)C(C)(C)C)c(OCCOc2ccc(CN3CCN(c4cc(-c5ccccc5O)nnc4N)CC3)cc2)c1  IC50 (SMARCA4 (Homo sapiens, UniProt P51532)): 0.67 ± 0.09 µM
CC(=O)NCCNC(=O)C1=CN(c2ncnc3[nH]cnc23)CCS1  IC50 (PRKACA): > 10 µM
Nc1nsc(C(=O)NCc2cccc(Cl)c2Cl)c1Cl  IC50 (OVA5; enzyme activity, inhibitor): > 100 µM
O=C(NCC1CCOCC1)c1n[nH]cc1NC(=O)c1c(F)cccc1F  IC50 (DYRK1B (Homo sapiens, UniProt Q9Y463); target engagement, NanoBRET; cells): 2.39 µM
COc1cc(N2CCC(N3CCN(C)CC3)CC2)ccc1Nc1ncc(Cl)c(Nc2ccccc2P(C)(C)=O)n1  IC50 (NTRK1; enzyme activity, inhibitor; added: 1 mM ATP): 0.8 µM
CC[C@@H]1[C@H](F)C(=O)N[C@@H]1COc1nccc2cc(C(N)=O)c(OC)cc12  IC50 (AKT1 (Homo sapiens, UniProt P31749); kinase activity, inhibitor, ActivX ATP-site probe profiling; THP-1 cell lysate; ATP loop site): > 5 µM
C=C(Cl)c1c(N)nsc1C(=O)NCC1CCCCC1  IC50 (OVA5; enzyme activity, inhibitor): 79.4 µM
CN1CCN(c2ccc(Nc3ncc4cc(C#N)c(=O)n(C5CCCC5)c4n3)cc2)CC1  IC50 (STK26 (Homo sapiens, UniProt Q9P289)): 9.84 µM
Cc1cccc(-n2ncc(Cl)c(Cl)c2=O)c1  IC50 (XDH; enzyme activity, inhibitor): 229 ± 250 µM
C#Cc1c(N)nsc1C(=O)NCC1CCCC1  IC50 (OVA5; enzyme activity, inhibitor): 31.6 µM
COc1cc2nccc(Oc3ccc(NC(=O)c4cc5c(n(-c6ccccc6)c4=O)CCCC5=O)nc3)c2cc1OC  IC50 (NTRK1; cell viability, CellTiter-Glo; Ba/F3 expressing recombinant kinase; 48 h): 0.0357 µM
Brc1c(Br)c(Br)c2n[nH]nc2c1Br  IC50 (Dyrk1a (Rattus norvegicus, UniProt Q63470); inhibitor): 1.08 ± 0.15 µM
CN/C(=N/CCSCc1nc[nH]c1C)NC#N  IC50 (SLC22A2 (Homo sapiens, UniProt O15244); inhibitor): 52.4 µM
CCn1c(-c2nc3ccc(C(=O)N4CCCC(N)C4)cc3n2C)cc2ccccc21 (centres unmarked)  IC50 (PIK3CG (Homo sapiens, UniProt P48736); TR-FRET): > 31.6 µM

Some of these lines once more:
Cc1cc([N+](=O)[O-])ccc1-c1ccc(CN2CCCC2c2ccc(N(C)C)cc2)o1 (centres unmarked)  IC50 (IL1RL1 with IL-33; binding, AlphaLISA): < 10 µM
Cc1ncsc1-c1ccc(CNC(=O)[C@@H]2C[C@@H](O)CN2C(=O)[C@@H](NC(=O)C2(F)CC2)C(C)(C)C)c(OCCOc2ccc(CN3CCN(c4cc(-c5ccccc5O)nnc4N)CC3)cc2)c1  IC50 (SMARCA4 (Homo sapiens, UniProt P51532)): 0.67 ± 0.09 µM
O=P(O)(O)C(CNc1ccccc1)P(=O)(O)O  IC50 (polyphosphate kinase 2 (Cytophaga hutchinsonii, UniProt A0A6N4SMB5); enzyme activity, inhibitor, HPLC; 30 min, 37 °C, added: 0.04 mM ADP and 0.3 mM polyP): 975 µM
